Assay results collected from several papers.
Lines come from different studies, so protocols differ. Values joined by “and” are separate records of one study, mostly repeats; a detail may differ. ± marks the error that the study gave.
UniProt P51575, sequence (whole entry, unmodified, looked up): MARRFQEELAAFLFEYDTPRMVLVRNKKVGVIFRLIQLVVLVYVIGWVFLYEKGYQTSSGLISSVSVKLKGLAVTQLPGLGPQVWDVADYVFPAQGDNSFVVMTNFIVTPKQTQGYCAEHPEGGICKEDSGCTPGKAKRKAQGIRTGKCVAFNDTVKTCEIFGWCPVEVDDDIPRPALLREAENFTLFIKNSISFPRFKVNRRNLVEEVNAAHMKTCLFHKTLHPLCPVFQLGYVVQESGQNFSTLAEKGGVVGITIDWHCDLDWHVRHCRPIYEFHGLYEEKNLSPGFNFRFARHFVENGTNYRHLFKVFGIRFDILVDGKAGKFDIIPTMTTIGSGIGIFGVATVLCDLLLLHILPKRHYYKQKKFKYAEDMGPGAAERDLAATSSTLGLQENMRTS
UniProt P02769, sequence (whole entry, unmodified, looked up): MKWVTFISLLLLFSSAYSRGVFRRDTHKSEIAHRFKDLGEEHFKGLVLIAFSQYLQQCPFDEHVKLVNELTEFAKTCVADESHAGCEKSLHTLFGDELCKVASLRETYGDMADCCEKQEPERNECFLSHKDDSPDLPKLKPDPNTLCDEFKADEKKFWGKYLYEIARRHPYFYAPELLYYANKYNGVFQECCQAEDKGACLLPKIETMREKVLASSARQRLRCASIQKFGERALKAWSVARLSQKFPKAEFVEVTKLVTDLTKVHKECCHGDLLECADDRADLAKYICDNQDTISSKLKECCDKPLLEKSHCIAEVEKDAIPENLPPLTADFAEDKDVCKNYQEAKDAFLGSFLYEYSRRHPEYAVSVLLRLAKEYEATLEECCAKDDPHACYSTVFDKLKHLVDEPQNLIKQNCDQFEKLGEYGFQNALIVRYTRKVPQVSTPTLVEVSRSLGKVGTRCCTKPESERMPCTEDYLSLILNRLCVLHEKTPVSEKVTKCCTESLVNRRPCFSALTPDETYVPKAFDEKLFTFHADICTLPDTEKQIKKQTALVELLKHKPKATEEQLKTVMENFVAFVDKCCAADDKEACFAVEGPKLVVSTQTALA
UniProt Q9UPE1, sequence (whole entry, looked up): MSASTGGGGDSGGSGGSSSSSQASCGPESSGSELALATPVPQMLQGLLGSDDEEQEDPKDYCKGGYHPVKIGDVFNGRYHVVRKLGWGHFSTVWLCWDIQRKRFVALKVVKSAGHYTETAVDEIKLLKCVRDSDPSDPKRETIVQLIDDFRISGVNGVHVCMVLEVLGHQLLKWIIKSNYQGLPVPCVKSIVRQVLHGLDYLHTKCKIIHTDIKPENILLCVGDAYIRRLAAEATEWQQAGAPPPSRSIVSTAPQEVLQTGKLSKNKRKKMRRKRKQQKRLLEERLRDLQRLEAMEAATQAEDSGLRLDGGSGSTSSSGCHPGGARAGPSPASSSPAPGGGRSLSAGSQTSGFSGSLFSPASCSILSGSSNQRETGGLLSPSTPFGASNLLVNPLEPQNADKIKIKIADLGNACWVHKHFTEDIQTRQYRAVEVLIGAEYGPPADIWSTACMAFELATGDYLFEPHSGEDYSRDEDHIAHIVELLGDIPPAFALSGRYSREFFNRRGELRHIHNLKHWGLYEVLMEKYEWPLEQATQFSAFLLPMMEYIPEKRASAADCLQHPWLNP
UniProt P46098, sequence (whole entry, looked up): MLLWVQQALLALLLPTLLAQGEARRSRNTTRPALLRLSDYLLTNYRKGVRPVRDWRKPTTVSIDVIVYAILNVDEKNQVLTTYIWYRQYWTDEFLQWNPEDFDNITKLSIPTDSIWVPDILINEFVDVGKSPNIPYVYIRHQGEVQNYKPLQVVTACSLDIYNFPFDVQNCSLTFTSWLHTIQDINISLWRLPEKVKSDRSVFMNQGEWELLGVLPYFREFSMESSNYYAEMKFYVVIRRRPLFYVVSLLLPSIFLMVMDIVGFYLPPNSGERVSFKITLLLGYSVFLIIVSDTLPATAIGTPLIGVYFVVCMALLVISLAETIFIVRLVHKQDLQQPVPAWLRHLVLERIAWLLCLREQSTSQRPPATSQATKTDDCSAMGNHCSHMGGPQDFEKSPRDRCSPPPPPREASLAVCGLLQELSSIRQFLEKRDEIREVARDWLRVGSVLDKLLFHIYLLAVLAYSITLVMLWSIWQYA
UniProt P00441, sequence (whole entry, unmodified, looked up): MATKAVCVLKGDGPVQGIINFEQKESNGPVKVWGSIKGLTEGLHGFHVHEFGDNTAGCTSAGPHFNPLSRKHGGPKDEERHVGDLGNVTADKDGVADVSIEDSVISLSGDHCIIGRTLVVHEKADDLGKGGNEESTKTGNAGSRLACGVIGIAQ
UniProt Q9HB20, sequence (whole entry, looked up): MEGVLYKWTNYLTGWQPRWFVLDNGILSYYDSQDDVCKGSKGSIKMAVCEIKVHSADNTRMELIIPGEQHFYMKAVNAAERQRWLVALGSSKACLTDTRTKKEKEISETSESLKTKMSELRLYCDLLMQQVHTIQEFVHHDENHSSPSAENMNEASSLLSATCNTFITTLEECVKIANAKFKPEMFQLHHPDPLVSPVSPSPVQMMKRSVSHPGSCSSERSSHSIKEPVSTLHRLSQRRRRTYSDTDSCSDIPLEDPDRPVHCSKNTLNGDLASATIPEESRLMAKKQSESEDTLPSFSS

The selectivity ratio of CCOc1ccc(C(=O)CC(SCc2ccc(Cl)cc2)C(=O)O)cc1 (stereo not shown) is reported as over 10 fold (PLEKHA3, PH domain (Homo sapiens, UniProt Q9HB20); fluorescence polarization; baseline: other family proteins over target).
Cc1cc(Nc2cc(N3CCN(C)CC3)nc(Sc3ccc(NC(=O)C4CC4)cc3)n2)[nH]n1 gave a remaining activity of 101% (SRPK3 (Homo sapiens, UniProt Q9UPE1); kinase activity, KinaseProfiler; 0.03 µM, species human; baseline: control).
CC[C@H](C)[C@@H]1NC(=O)[C@H]([C@@H](C)CC)NC(=O)[C@@H](Cc2ccc(O)cc2)NC(=O)CSC[C@@H](C(N)=O)NC(=O)[C@H](CCCNC(=N)N)NC(=O)[C@H](CCCCN)NC(=O)[C@H](CC(C)C)NC(=O)[C@H](CO)NC(=O)[C@H](CO)NC(=O)[C@H](CC(C)C)NC(=O)[C@H](Cc2ccccc2)NC(=O)[C@H](C(C)C)NC(=O)CNC(=O)[C@H](CC(C)C)NC(=O)[C@@H]2CCCN2C(=O)[C@H]([C@@H](C)O)NC(=O)[C@H](CC(=O)O)NC1=O has a ΔH of -14.2 ± 0.3 kcal/mol (Vacuolar protein sorting-associated protein 29 (VPS29, Homo sapiens, UniProt Q9UBQ0); binding, ITC; 25 °C, protein alone).
For NCC[C@H](O)C(=O)N[C@@H]1C[C@H](N)[C@@H](O[C@H]2O[C@H](CN)[C@@H](O)[C@H](O)[C@H]2O)[C@H](O)[C@H]1O[C@H]1O[C@H](CO)[C@@H](O)[C@H](N)[C@H]1O, the ΔS° was -1050 J/mol/K (Albumin (ALB, Bos taurus, UniProt P02769); binding, van't Hoff plot, fluorescence quenching; pH 7.4, 283–310 K).
COc1cc(Nc2ncc3c(n2)-c2ccc(Cl)cc2C(c2c(F)cccc2OC)=NC3)ccc1C(=O)O has a remaining activity of 91% (IRAK4; kinase activity; 1 µM).
With Nc1ncnc2c1ncn2[C@@H]1O[C@H](COP(=O)(O)CP(=O)(O)OP(=O)(O)O)[C@@H](O)[C@H]1O the specific binding was 1530 CCPM and 1310 CCPM (P2X purinoceptor 1 (P2RX1, Homo sapiens, UniProt P51575, E282A); saturation binding; HEK293; 52 nM).
Cc1ncsc1-c1ccc(CNC(=O)[C@@H]2C[C@@H](O)CN2C(=O)[C@@H](NC(=O)C2(F)CC2)C(C)(C)C)c(OCCOCCOCCN2CCN(c3cc(-c4ccccc4O)nnc3N)CC2)c1 — result for “cooperativity factor alpha”: 3.8 (SMARCA4 (Homo sapiens, UniProt P51532); ternary complex binding, AlphaLISA competition; HEK293 cell lysate; added: full-length VCB; baseline: binary IC50 over ternary IC50).
CC[C@H](C)[C@H](NC(=O)[C@H](Cc1ccccc1)NC(=O)[C@H](CCC(=O)O)NC(=O)[C@H](CCCNC(=N)N)NC(=O)[C@H](C)NC(=O)[C@H](C)NC(=O)[C@H](CCC(N)=O)NC(=O)[C@H](CCC(=O)O)NC(=O)[C@H](CCC(=O)O)NC(=O)[C@H](CC(C)C)NC(=O)[C@H](Cc1ccc(O)cc1)NC(=O)[C@H](CO)NC(=O)[C@H](CO)NC(=O)[C@@H](NC(=O)[C@H](CC(=O)O)NC(=O)[C@H](CO)NC(=O)[C@@H](NC(=O)[C@H](Cc1ccccc1)NC(=O)[C@@H](NC(=O)CNC(=O)[C@H](CCC(=O)O)NC(=O)[C@H](C)NC(=O)CCc1cnc[nH]1)[C@@H](C)O)[C@@H](C)O)C(C)C)C(=O)N[C@@H](C)C(=O)N[C@@H](Cc1c[nH]c2ccccc12)C(=O)N[C@@H](CC(C)C)C(=O)N[C@H](C(=O)N[C@@H](CCCNC(=N)N)C(=O)NCC(=O)N[C@@H](CCCNC(=N)N)C(=O)N[C@@H](CCCCNC(=O)COCCOCCNC(=O)COCCOCCNC(=O)CC[C@H](NC(=O)CCCCCCCCCCCCCCCCC(=O)O)C(=O)O)C(=O)NCC(=O)NCC(=O)N[C@@H](CO)C(=O)N[C@@H](CCSC)C(=O)N[C@H](C(=O)N[C@@H](CCCCNc1c(NCCCCCN(O)C(=O)CCC(=O)NCCCCCN(O)C(=O)CCC(=O)NCCCCCN(O)C(C)=O)c(=O)c1=O)C(=O)O)C(C)C)C(C)C — result for “fold potency loss”: 1.9 (GLP1R (Homo sapiens, UniProt P43220); agonist, CRE luciferase reporter; BHK cells; metal-free DFO conjugate, added: 1% HSA; baseline: parent peptide).
For CCCC(CCC)c1nc2c(Nc3ccc(C#CCCCCCCCCN)cc3)nc3ccccc3c2[nH]1, off-target affinity read “inactive” (HTR3A (Homo sapiens, UniProt P46098); PDSP screening).
[O-][S+]1CCCCS1 (stereo not shown) gave a target engagement of 25.8% (SOD1 (Homo sapiens, UniProt P00441, G94A); intact protein LC-MS; SOD1 G93A transgenic mice, whole blood; intravenous, 10 mg/kg, 24 h, mean of two mice).

A few entries again:
For CCCC(CCC)c1nc2c(Nc3ccc(C#CCCCCCCCCN)cc3)nc3ccccc3c2[nH]1, off-target affinity read “inactive” (HTR3A (Homo sapiens, UniProt P46098); PDSP screening).
[O-][S+]1CCCCS1 (stereo not shown) gave a target engagement of 25.8% (SOD1 (Homo sapiens, UniProt P00441, G94A); intact protein LC-MS; SOD1 G93A transgenic mice, whole blood; intravenous, 10 mg/kg, 24 h, mean of two mice).
